Results gathered from unrelated publications.
Parts stem from different laboratories: compare values within a part only. Positions count from the first letter of the parent shown.

Sample 1 — method: DHFR PCA, deep sequencing; medium: yeast; together with: (+)-ABA 200 µM; reference: wild-type fitted maximum; direction: higher = stronger binding; quantity: relative binding score
Target: ABI1, truncated, D143A, DHFR fusion (Arabidopsis thaliana)
Notes: methotrexate growth selection, single substitutions
Starting sequence: PYL1, truncated, DHFR fusion (Arabidopsis thaliana); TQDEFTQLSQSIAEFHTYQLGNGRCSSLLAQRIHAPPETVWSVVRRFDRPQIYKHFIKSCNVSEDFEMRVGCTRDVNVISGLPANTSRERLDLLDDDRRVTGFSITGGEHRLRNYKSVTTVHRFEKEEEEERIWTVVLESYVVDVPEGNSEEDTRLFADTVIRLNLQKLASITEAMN
S27D: 93.4%
W134V: 111%
R132N: 104%
E67N: 98.3%
F157G: 0.539%
I133Y: 103%
K54F: 11.6%
G81E: 32.7%
R45I: 9.03%
Y18K: 88.8%
G81V: 36%
R88E: 102%
K126V: 107%
F15D: 64.7%
R49G: 77.3%
P36L: 91.6%
H34T: 86.2%
I105P: -11.5%
E89I: -12.3%
D92T: 83.4%
D92W: 67.1%
S104A: 68.5%

Sample 2 — method: protein binding microarray; form: double-stranded DNA, one strand shown; medium: in vitro; concentration: not given; reference: not given; direction: higher = stronger binding; quantity: E-score
Target: Histone acetyltransferase KAT6A, winged helix 2, GST fusion (KAT6A, Homo sapiens, UniProt Q92794, residues 85-181)
Notes: 8-mer, flanks averaged, mean of 2 arrays, mostly near background
Construct (chain): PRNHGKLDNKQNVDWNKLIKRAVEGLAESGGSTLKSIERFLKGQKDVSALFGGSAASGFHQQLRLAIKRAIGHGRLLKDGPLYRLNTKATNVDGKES
GCTTGGCA: -0.0343
ATAGGTGC: -0.234
GCAAAAGA: -0.0884
AATTACCT: -0.169
ACAGGCAG: 0.0241
AAACGAAT: -0.0848
AGACTCTG: -0.0659
AAGATGAT: -0.141
GGATCAAA: -0.0059
AATTCTGA: 0.0804
CTATTCAC: -0.0814
AGAGGTCG: 0.171
ACGAACGC: 0.183
AGTTCGAG: -0.0174
TATGAGCA: 0.117
CAGTCTTC: -0.104
CTATGTGC: -0.00898
GCTTGAGA: -0.0216
ATTATGGC: -0.00211
CTCGATAC: -0.0838
AATACGGA: -0.0594
GGCTAGAA: -0.102
ACTACGAT: 0.0102
GGAAAGTA: -0.137

Sample 3 — target: CCNF, cyclin fold, Cln2 fusion (human); method: yeast growth competition, sequencing; medium: yeast; notes: strong parent motif; reference: not given; direction: higher = stronger binding; quantity: normalised enrichment score
Starting sequence: SAMHD1 docking peptide (human); ASKSRVQLFKDDP
L8T: -0.0761
D12T: 0.999
Q7M: 0.312
S2F: 2.45
V6C: 0.873
L8S: 0.125
D11R: 1.01
Q7N: 0.336
K10C: 0.911
K10A: 0.831
Q7R: 1.62
D12W: 1.5
F9M: 0.146
D11A: 0.787
D12H: 1.02
R5Q: 0.877
R5L: 0.106
F9G: -0.361
V6G: 0.193
K10I: 0.804
K3F: 1.96
D12P: 1.22
D11F: 0.812
S2N: 2.05
S2W: 2.95

Sample 4 — method: EMSA with sequencing; form: double-stranded DNA, one strand shown; medium: in vitro; concentration: 10 and 20 nM; reference: negative control set to 0; direction: higher = stronger binding; quantity: normalised bound fraction
Target: Hepatocyte nuclear factor 3-alpha (Foxa1, Mus musculus, UniProt P35582, residues 1-468, full length assumed)
Sequence of UniProt P35582 (whole entry, looked up): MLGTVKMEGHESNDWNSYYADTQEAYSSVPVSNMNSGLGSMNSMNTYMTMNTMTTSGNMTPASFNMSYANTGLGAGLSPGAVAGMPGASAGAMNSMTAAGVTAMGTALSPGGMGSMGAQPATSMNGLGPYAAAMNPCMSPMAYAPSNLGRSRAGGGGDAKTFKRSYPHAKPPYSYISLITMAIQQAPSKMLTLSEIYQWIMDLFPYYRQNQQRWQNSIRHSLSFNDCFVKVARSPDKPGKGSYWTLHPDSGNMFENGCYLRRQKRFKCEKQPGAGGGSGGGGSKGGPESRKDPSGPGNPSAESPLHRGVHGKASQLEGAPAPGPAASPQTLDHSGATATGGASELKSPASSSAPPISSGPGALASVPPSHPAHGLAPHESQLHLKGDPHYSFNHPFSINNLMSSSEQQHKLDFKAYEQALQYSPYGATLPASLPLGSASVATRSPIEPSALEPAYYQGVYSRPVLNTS
Notes: whole designed probe, mean of two concentrations, ends assumed
Shared flanks, not repeated: GTGAGCGGTGCCCATTGATGGGGAAC … TTTCACTGGGATCGTGGGGAC
AATGATTAGTTTACACATATACATCGCTTTTGAAGGCCCCCAAACACCAGGGGACCATAGAGATCCTTTGGACTTCATGATTCTGGGAGTGTTTGTTTGCACTGATACCTGAAGAAATAGATCTTGAGGGCCTACATTCCAACCTCTGGGCTGAAGTACCAACCTCGGGGAGAAGGAAACAAAGATCACAATA: 0.305 ratio
TAAAATGGAAGCATGCAAGTTTAGATTGAAAGAGAAAATATAAGCTTCAAAAACTCTTTAGTTCTACATTTTACAAAAGTAAACATTTTACAAAGTAAACATAAAGTAAACATTATGATAGTAATTACTATCATACCACAGGTATAAACAGTAACTTGGAAAAATTTTCCCTTTTAAGACCTTGCATAAAACA: 0.535 ratio
ATCCCTTTCCCTCTCCTTGCCCCACCAGCTCACCTTCCCGGGTTATTTGCAGATAGGAAAATAAATAAAGCCGGCATTCGTTAACCCTCTTCTGGCGCAAACTGCTGTTTGCTCTGGATGAATCATGGTCCTTTGGCGACGCCAGGCTCCGGGAGAGCAAAGCACCGTGTCAGGGCCATGATCCGGGGTGGCC: 0.33 ratio
GGGAATTTTTATATAATACCAACTAATGAGTGTAAAACAAAGAAACAAAAAGAAACCAGTCCACAGAAACCAGAGTTGAGGCATGTGACTCAGAGATGACTCTCAAGGTGATTACCCTGTGAAACTATGTACTGTTCTTGCATAACAATTTTTGGAATCTTTTGCTTTGAAATGCCTTCAGAATCAGTTCATG: 0.0167 ratio
ATCTTCCCCCTCTTCCTTGCCCCACCAGCTCACCTACGGGGGTTATTTGCACAAAGGAAAATAAATAAAGCCGGCATTCGTTAACGCAGTTCTGGCGCAAACTGCTGTTTGCTCTGGATGAATCATGGTCCTTTGGCGACGCCAGGCTCCGGGAGAGCAAAGCACCGTGTCAGGGCCATGATCCGGGCTCGCC: 0.385 ratio

Further values, each from its own experiment
PhoQ, residues 284 288 289 292 302 303 AMDMFI  fold induction (PhoP, residues 12 14 15 18 19 TPLRH (Escherichia coli, UniProt P23836); Sort-seq, refers to: YFP reporter; E. coli; PhoQ-PhoP variant library, together with: 10 µM Mg2+; reference: high Mg2+ state, higher = stronger signaling): 1.08

A few entries again (sample 3):
Q7M: 0.312
S2F: 2.45
R5L: 0.106
S2N: 2.05
D12P: 1.22
D12W: 1.5
D12H: 1.02
L8S: 0.125
Q7R: 1.62
F9G: -0.361
